Results gathered from unrelated publications.
Every numbered part comes from another study and shows a few of its results, in no order.

Series 1
Target: RING finger protein unkempt homolog, zinc fingers 1-6, GST-SBP tag (UNK, Homo sapiens, UniProt Q9C0B0, residues 30-357)
Technique: RNA Bind-n-Seq
Form: RNA
Medium: in vitro
Concentration: not given
Setting: RNA with constant flanks, human and mouse sites, ends assumed
Relative to: input RNA pool
Direction: higher = stronger binding
Residues (chain): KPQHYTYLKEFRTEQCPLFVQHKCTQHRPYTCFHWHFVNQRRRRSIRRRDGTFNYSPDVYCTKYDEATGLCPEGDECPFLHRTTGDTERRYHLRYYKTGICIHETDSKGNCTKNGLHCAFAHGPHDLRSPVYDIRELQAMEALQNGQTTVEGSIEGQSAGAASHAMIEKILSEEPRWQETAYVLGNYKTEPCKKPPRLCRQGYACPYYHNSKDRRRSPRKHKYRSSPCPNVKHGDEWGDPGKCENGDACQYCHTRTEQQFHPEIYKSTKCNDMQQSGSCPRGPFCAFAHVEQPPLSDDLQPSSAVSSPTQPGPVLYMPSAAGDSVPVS
With `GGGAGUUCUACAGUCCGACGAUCAGAUAAACUGUCCAUUCUUUCAUUUGGAAGCUAAUUAUGUAGACCAUUUAAAUGGAUAUUAUAGAUGACAACUUAAUACAAUGUUUUCUCUAGGCCUAAAGAUGUCGGAAGACCCAAGGCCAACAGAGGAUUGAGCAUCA` the bound/input enrichment was 1.06 ratio.
For `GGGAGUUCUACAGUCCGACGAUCUUGUAUUGUUGAUGAUAAGUGUUGACAUUGGGUAGUGUAGAAGCAACAAGCAUGUCCUUGUAGUACAGGUACAGUGAAGGAUAGAACACACUUUCGUUGAUACAAAAAUUUAAAUAGUUACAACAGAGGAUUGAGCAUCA`, the bound/input enrichment was 1.34 ratio.
`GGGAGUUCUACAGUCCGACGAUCAAAUUUAACUAAUUUCCAUUUGUUAAAAAGUAGUGAUUUAUUGAGAAUUAUGCAGUCAUUUUUUAAACCCAAAAGUUAUUUAAAGGUGAAUUUAUACUCAAUAACUUCUGUGUAAUACUGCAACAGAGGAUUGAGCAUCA` gave a bound/input enrichment of 2.18 ratio.
The bound/input enrichment of `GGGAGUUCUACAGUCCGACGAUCGAGGCCCUGCAGUGGCGUGAUUCCCUGGACAAACUCCUGCAGAACAACUAUGGACUUGCCAGUUUCAAAAGUUUCCUGAAGUCUGAAUUCAGUGAGGAAAACCUUGAGUUCUGGAUUGCCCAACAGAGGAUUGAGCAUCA` is reported as 0.0461 ratio.
The bound/input enrichment of `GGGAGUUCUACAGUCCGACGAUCCGGGAGUCCCAGUGCCACAUCCUGGAAGAUCUGCUUGGCUGCCAUUAACUCUUCCUGGAAUUUAGAAGUUUUUGUUAUUUUUACUUUUAUACAGAUUGGUUUUAAGCUCUUGCCUUCUACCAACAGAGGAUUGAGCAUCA` is reported as 2.19 ratio.
The bound/input enrichment of `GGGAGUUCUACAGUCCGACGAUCUGAUACCGACAGCAAUAGGAUCUUUUGAGUAUUCAACUCGGAGUAACAGAAUUUGUCAUCAACGGCAUGAAUGGCUCAGCCGAGGAAAUAGAGCAGCUUUCAUCUAAAUCCAAGCGUGUCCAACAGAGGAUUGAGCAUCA` is reported as 0.247 ratio.
`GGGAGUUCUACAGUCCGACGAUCUGUGAAACCCAGAAAUGGACUGUGAAUGGACAGCUGAGGGUUGGAUUUUUUACCACCAAACUAGUUCCUUCAGGCUCAGAAUUAACUUUUGACUACCAGUUCCAAAGAUAUGGCAAAGAACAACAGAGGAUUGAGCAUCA` has a bound/input enrichment of 0.34 ratio.
The bound/input enrichment of `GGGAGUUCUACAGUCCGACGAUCAGUUUAUCUCCUGAACAUAAUUAUAAUUUUGAUAUUAACACAAUAGGUCAGACUGGAUUUUGUAGCUUUUAUUCUGGAAGUCAGUUUGUCCCAGCUGAUCAGAAUUUGCCUCAGAAGUUCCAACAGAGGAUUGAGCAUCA` is reported as 1.94 ratio.

Series 2
Target: RNA binding protein fox-1 homolog 2, RRM domain, GST-SBP tag (RBFOX2, Homo sapiens, UniProt O43251-10, residues 100-194)
Technique: RNA Bind-n-Seq
Form: RNA
Medium: in vitro
Concentration: 365 nM
Setting: natural RNA segment, single round, ends assumed
Relative to: no-protein control
Direction: higher = stronger binding
For `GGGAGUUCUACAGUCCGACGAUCAAGUGUAUUUAAUGUCUGUGUCAUGUAUAUGCCAAAAUUUUAAUCCCCUAUAAAUAAAACAUGUGUCACAAAACUGUAGGCUGAAUUUCUUAACCAAUUAGACUAGCACAUGGAAUUCUCGGGUGCCAA`, “RBNS enrichment (R)” read 1.12.
`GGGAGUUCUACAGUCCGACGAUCGUAAAAAUUAAUUUAUUUGUGUUAUCUUGUAUUGACAAAUAAAAAUCUUUACUACUUUCUCAAGCCCGGUCUGUCUUGUCCAUUCUGCCUGCCCCAUAGUGGAGCCCAAGUGGAAUUCUCGGGUGCCAA` — result for “RBNS enrichment (R)”: 0.866.
`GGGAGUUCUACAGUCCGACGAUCCUGGUCAUUAACUCAGUCAUGCCGAGCACCAGGGCGCUGGUUCUGAAACGGUUAAGAGAAAGGCUCUGGGCUUUGCUCCCAUCUCUGCACAGCGCACUGUGGAGCAGAGAUGGAAUUCUCGGGUGCCAA`: “RBNS enrichment (R)” 1.74.
`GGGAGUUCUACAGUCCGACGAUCCUCAAAUACAUUGCCUCGGCAUGAACAUUAUUGUUAAUAUAAAUUGCACAUGGUCAUCGAGUGAAUUAUAAAAUUUUGAAAAGAUGCAGCUGCCCAAUAUUAACAGUUUUUGGAAUUCUCGGGUGCCAA`: “RBNS enrichment (R)” 0.569.
Under “RBNS enrichment (R)”, `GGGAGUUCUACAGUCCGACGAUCCUACUCCCCACUCCUGCCACCAAGCACAUCCGGUCUAGGGGUUCCUCACUCUCUUUCAUUUAGCUGCCAGUCAUUUUAUGAAAAUGAAGUGCUUCUAAGUAUUUCCUUAAUGGAAUUCUCGGGUGCCAA` is recorded as 0.483.
`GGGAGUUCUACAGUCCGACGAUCCAAGCCGCUUAACCUUGCUAAGCCUCUGUUUUCUCAUAUGUCAAAUGGUGAUAAUAAUGCCUACCUCCCGAGGUUGUUGUAAGAAUUAUAAGCACAAAUGUAUGUAAAGUUGGAAUUCUCGGGUGCCAA`: “RBNS enrichment (R)” 0.644.
For `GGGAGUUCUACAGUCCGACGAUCAUCCCUUCCAGGCACAGCGAGUUGGUUCUGCUUUUUGCCUGUAAGCCAAAGAAAAGCCACAUCUAAAAAGCUACUACUAAAAGCCAGAAAGAAAAGUGGAUUUGAACUCAUGGAAUUCUCGGGUGCCAA`, “RBNS enrichment (R)” read 0.395.
`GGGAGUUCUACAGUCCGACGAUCGUGUAAUUAUUUCUUCUCUUACUAGUUUCAAAUAAAUUCAUCUCUAAUUCUAUAGAGAAUUCUUGCCUCCCAUUCAGGACUGGCCUUCUAUACAGUGAGAUGGUCCAGUAUGGAAUUCUCGGGUGCCAA` — result for “RBNS enrichment (R)”: 0.789.

Series 3
Target: Interferon regulatory factor 5, full length, phosphomimetic (IRF5, Homo sapiens, UniProt Q13568-2, residues 1-514, S451D/S453D/S456D/S462D)
Technique: protein-binding microarray
Form: double-stranded DNA, one strand shown
Medium: in vitro
Concentration: 940 nM top
Setting: 60-bp whole probe
With: salmon DNA 0.4 mg/ml
Relative to: random background probes
Direction: higher = stronger binding
Shared flanks, not repeated: GCCTAGCAC … GTCTTGATTCGCTTGACGCTGCTG
For `TCACTTCTTTTTTTTCTACTGTGCTAG`, “fitted relative affinity” read 1.53 z-score.
`TTAAAACTGAGACTGGATTAGTGCTAG`: “fitted relative affinity” -0.0338 z-score.
`TTTGTCATCTATAATGGATATGTGCTA` — result for “fitted relative affinity”: 0.105 z-score.
`TGTGGACCTTGGGAGATTTCGTGCTAG` — result for “fitted relative affinity”: -0.31 z-score.
`TTTGGACTGGACTTTCGGTTAGTGCTA`: “fitted relative affinity” 2.7 z-score.
For `GACCGTCTCGGACTGGGGACGTGCTAG`, “fitted relative affinity” read 0.528 z-score.
`TTCATTATTGCTTCCTCTTTGTGCTAG` — result for “fitted relative affinity”: 1.06 z-score.
`GACGGTCTCCTTTTCCTTACGTGCTAG`: “fitted relative affinity” 0.757 z-score.
Under “fitted relative affinity”, `AACGGTTCCCTTTTCCTGACGTGCTAG` is recorded as 0.71 z-score.
`GACGGCATCGGTATCGGGACGTGCTAG` — result for “fitted relative affinity”: 1.29 z-score.
`TTAGGACTGGCGTATCGGTTAGTGCTA` — result for “fitted relative affinity”: 0.478 z-score.
Under “fitted relative affinity”, `GACGGTCTACTTCTCCTGACGTGCTAG` is recorded as 0.331 z-score.
`TTAGGTTTCCTACTGCATTAGTGCTAG`: “fitted relative affinity” 0.818 z-score.
`GACGGTACCGGGACTGGGGACGTGCTA` — result for “fitted relative affinity”: -0.0607 z-score.
Under “fitted relative affinity”, `CAAGTTTCTCCTTTCCAAATGTGCTAG` is recorded as 4.28 z-score.
`TGAAAATTCTAATTAGAATTGTGCTAG`: “fitted relative affinity” -0.454 z-score.

Series 4
Target: Histone acetyltransferase KAT6A, winged helix 1, GST fusion (KAT6A, Homo sapiens, UniProt Q92794, residues 1-85)
Technique: protein binding microarray
Form: double-stranded DNA, one strand shown
Medium: in vitro
Concentration: not given
Setting: 8-mer, flanks averaged, mean of 2 arrays, mostly near background
Relative to: not given
Direction: higher = stronger binding
Construct (chain): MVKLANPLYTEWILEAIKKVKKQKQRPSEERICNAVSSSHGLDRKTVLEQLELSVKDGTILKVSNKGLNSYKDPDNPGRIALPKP
The E-score of `ATTACCGA` is reported as -1.5e-05.
`ATCGGTAA` gave an E-score of 0.0621.
The E-score of `CAGGCTCC` is reported as 0.0915.
The E-score of `AATGACGC` is reported as 0.0894.
For `ACCTTCCA`, the E-score was -0.0758.
With `CACGACTC` the E-score was -0.26.
`CCCCGTAC` has an E-score of 0.368.
`ACTGCCGA` has an E-score of 0.117.
`ACTCGCCC` gave an E-score of 0.155.
The E-score of `CACGGCGA` is reported as 0.366.
For `CGGTAATA`, the E-score was 0.219.
For `GCGATTAA`, the E-score was 0.115.
For `GACATGTC`, the E-score was -0.00443.
`AAAATTGA` gave an E-score of -0.373.
For `CGAGGGAG`, the E-score was 0.0289.
`AGCTTAAC` has an E-score of -0.144.

Excerpt of the above (series 4):
`AGCTTAAC` has an E-score of -0.144.
For `GCGATTAA`, the E-score was 0.115.
`ATCGGTAA` gave an E-score of 0.0621.
For `CGGTAATA`, the E-score was 0.219.
